Assay results pooled from the literature.
Numbered parts are unrelated; each lists some results of a single study.

Set 1
Target: Hepatocyte nuclear factor 3-beta, forkhead domain (FOXA2, Homo sapiens, UniProt Q9Y261, residues 142-269)
Method: protein-binding microarray
Molecule type: double-stranded DNA, one strand shown
Matrix: in vitro
Tested at: not given
Notes: k-mer, scored over probes, only values ≥0.25
Direction: higher = stronger binding
Residues (chain): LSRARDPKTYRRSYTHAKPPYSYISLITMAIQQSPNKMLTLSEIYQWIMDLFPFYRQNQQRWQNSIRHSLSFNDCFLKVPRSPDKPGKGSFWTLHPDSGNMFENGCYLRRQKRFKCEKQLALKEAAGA
Sequence | E-score
TATAGTCA | 0.352
ACAACACT | 0.323
AATATCGT | 0.256
AAATCATG | 0.268
AATATGAT | 0.266
CGAACAAA | 0.279
AATGTTGA | 0.349
ACACATAA | 0.416
AAATAAGA | 0.25
GCAATACA | 0.333
ATACTATA | 0.256
AAACATGA | 0.305
TACAAGTA | 0.271
ATATCTAC | 0.333
AGTACACA | 0.375
AAATAACG | 0.287
CAAACAAA | 0.381
CACATTAA | 0.261
ATATACAT | 0.363

Set 2
Target: RING finger protein unkempt homolog, zinc fingers 1-6, GST-SBP tag (UNK, Homo sapiens, UniProt Q9C0B0, residues 30-357)
Method: RNA Bind-n-Seq
Molecule type: RNA
Matrix: in vitro
Tested at: not given
Notes: RNA with constant flanks, ends assumed
Relative to: input RNA pool
Direction: higher = stronger binding
All sequences stand within: GGGAGUUCUACAGUCCGACGAUC … CAACAGAGGAUUGAGCAUCA
Residues (chain): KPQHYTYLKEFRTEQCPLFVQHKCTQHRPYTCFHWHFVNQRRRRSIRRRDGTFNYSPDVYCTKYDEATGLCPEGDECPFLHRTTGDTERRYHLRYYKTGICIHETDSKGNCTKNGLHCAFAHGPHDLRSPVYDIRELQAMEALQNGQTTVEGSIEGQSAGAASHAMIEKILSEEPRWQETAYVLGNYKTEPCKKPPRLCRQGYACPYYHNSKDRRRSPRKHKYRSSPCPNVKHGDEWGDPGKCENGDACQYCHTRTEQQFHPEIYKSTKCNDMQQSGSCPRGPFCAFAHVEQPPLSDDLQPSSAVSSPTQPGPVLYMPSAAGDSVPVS
Sequence | bound/input enrichment [ratio]
AAAUCAUGUGUGUCAAAUAUUGAAAGUACUUUAUCUGCACUCCAAUAUGUAAGCAGCACCGCCGUUUCUUUAGAGAAUAGGUCUGCCAUUGUGAAGUAUAAUGCAAGCUCAGUCACUCCA | 0.572
GCAGUAAUGACUACCUAGGCAUGAGUCGACACCCACGGGUGUGUGGGGCUGUCAUGUGAGCCGCUCUCAGUUUUCACCUACCACAGGCGUUAUUUGGCAGGACUUGGGUGGCUUGUACAG | 0.182
UCUGAUGGGGACCAUCAGGUUCCAACUACUGCAGGAAACAAAGCAGCUCUUUUAGAUCAAAUCCGAGAGGGUGCUCAGCUAAAAAAAGUGGAGCAGAACAGUCGGCCAGUGUCCUGCUCU | 0.392
CUCAGCAAUGUGUCUUCCACGGGCAGCAUCGACAUGGUGGACUCACCACAGCUUGCCACACCCGCCGAUGAAGUGUCUGCUUCCUUGGCCAAGCAGGGUUUGUGAUCAGGCUCCCAGGGC | 0.0807
GGGCAGACUAAGACAGUCAGAGUGUUCCGCUUUAUAACUGAUAACACUGUAGAAGAAAGAACCGCCGAACGUGCUGAGAUGAAACUCAGACUGGAUUCAAUAGUCAUUCAACAAGGGAGG | 0.52
AUGGACCUGCAGCUCCACAUUUACCAGCUGAAAACCCUGAUCAGGAUGGUAAAGAAAACCUACCGAGAUUUCCGAUUGCAAGGGGUCCUGGAUUCCACCUUAAACAGCAAGACCUAUGAG | 0.221
GGGACAGGGGUAGUGUUCCUGGUUUUGGUGGGGUUUGCCUUUAGUUUAAUUUUCCUUUUCCCGCUUCCCUUUGCCGGCUGGUGCGUACGUUGUAGUCCCCCGAGGCCAUGUCAGGAGACG | 6.23
AAUGCAGUUAUAUUUGGACCAGAAGGGACACCCUUUGAAGAUGGUACUUUUAAACCCGUAACCGAAUUUUCUGAAGAAUAUCCAAAUAAACCACCAACCGUUAGGUUUUUAUCCAAAAUG | 0.816

Set 3
Target: Phosphate system positive regulatory protein PHO4, full length, GST-tagged (PHO4, Saccharomyces cerevisiae, UniProt P07270, residues 1-312)
Method: competition protein-binding microarray
Molecule type: double-stranded DNA, one strand shown
Matrix: in vitro
Tested at: 2 µM
Notes: whole 60-bp probe, lowest competitor level
With: Cbf1 competitor, 0.05 µM
Direction: higher = stronger binding
All sequences stand within: … GTCTTGATTCGCTTGACGCTGCTG
Target sequence (chain): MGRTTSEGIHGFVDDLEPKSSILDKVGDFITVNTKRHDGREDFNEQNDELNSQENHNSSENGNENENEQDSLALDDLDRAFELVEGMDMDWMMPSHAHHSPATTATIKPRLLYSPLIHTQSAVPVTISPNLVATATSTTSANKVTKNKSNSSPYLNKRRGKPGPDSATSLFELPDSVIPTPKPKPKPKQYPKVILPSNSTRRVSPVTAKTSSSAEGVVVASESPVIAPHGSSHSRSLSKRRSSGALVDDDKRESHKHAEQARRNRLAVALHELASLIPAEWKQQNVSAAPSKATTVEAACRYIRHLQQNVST
Sequence | fluorescence intensity
CATACCCAACCTTGTTAGGTGGGTGAAGATATTTGT | 3580 a.u.
TTTCTGAGCGCCTACCACGTGGAGAGAGCTAAGTGC | 18100 a.u.
GGTCATTGATGCTTGCATGTGCCGAGAAGCGGGACA | 11400 a.u.
CTGACGGGTTCTGGACACGTAGGCAATCCATATTGG | 5140 a.u.
CAATCTTATCATTGCCACGTGCAAAAGCAACATCTT | 18400 a.u.
GAGCAATCATACCGTCACGTTCCATCTCACCGAATC | 12300 a.u.
CGGGGTTAAGTTTGAGCAGTGGGTGGCTTGCAGCAG | 4430 a.u.
TTTACCCCGGTGCTATTCGTGACGGTAACTATGGAA | 4600 a.u.
GTCTTGTCTCATTTTCACGTGTGCTTCCCCACTTCA | 10000 a.u.
GTTTCAGCGAAGTCGCACGTGAAGGATAGCAGTGGC | 12700 a.u.
AAGATATCTTTTTGTCATGTGATGGTACATCGTTTG | 6560 a.u.
ACCACCACAACGACAAGCGTGCCGATGTCCCCGTTA | 8630 a.u.
CGGGGTTAAGTTTGAGGTGTGGGTGGCTTGCAGCAG | 5750 a.u.
CTTCTGTAAATTTTTCACGTGACATGAAGCGCCCCG | 10200 a.u.
AAAGGCCATACCCGTCACAGTCCATCACAGAACCGC | 3460 a.u.
TGCGCAACAACTTCTCACGTGTTTTTATGTCTAGAA | 15800 a.u.
TAGGTTTTATCCTGGCACGCTGTCTAGCTTTCAAAC | 7360 a.u.
CGGGCTTGTCTCAGGCTCGTGTGGACCGCACTGTAA | 6930 a.u.
CTAACGAAGGTTTGACACGTGTTTTACAAGCCAAGT | 15900 a.u.

Set 4
Target: Histone acetyltransferase KAT6A, winged helix 2, GST fusion (KAT6A, Homo sapiens, UniProt Q92794, residues 85-181)
Method: protein binding microarray
Molecule type: double-stranded DNA, one strand shown
Matrix: in vitro
Tested at: not given
Notes: 8-mer, flanks averaged, mean of 2 arrays, mostly near background
Relative to: not given
Direction: higher = stronger binding
Target sequence (chain): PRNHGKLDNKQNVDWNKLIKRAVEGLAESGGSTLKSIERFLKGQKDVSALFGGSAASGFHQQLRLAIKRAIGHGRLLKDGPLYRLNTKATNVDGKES
Sequence | E-score
ATGGTGAA | 0.0313
CATATGCC | -0.138
GTCCGGAA | 0.0271
AGTTCAGC | 0.0508
CTCAGGGC | 0.128
CAGGAGGA | -0.0477
CCCAACAC | -0.135
GACGCAGA | 0.169
GTTGAAAA | -0.0519
ACGATGCC | -0.0222
CGGGATTA | -0.0124
AGTGGTGC | -0.0769
CCGGTCCG | 0.0194
AGTCTGGG | -0.0533
ACGCCTAC | -0.118
ATACTTTG | 0.0531
GGCCAAAC | 0.0889
CCTGTGCC | 0.0764
CTGGAGAC | 0.0384
GCCTCTTA | 0.0955
AGAGTCGA | -0.166
CCTGCTCC | 0.109
AGCCAATC | -0.035
AGGCACTG | 0.238
ATGTGACC | -0.0265

For quick reference, copied from above (set 4):
Sequence | E-score
ATGGTGAA | 0.0313
CATATGCC | -0.138
GTCCGGAA | 0.0271
AGTTCAGC | 0.0508
CTCAGGGC | 0.128
CAGGAGGA | -0.0477
CCCAACAC | -0.135
GACGCAGA | 0.169
